Literature values that unrelated publications cite.
Each line is one published result; not all experiments were run side by side. “And” joins repeats or separate records; there may be more than shown. ± marks the error that the study gave.

Structure (SMILES) = Nc1nc2c(ncn2[C@@H]2O[C@@H]3COP(=O)(O)O[C@H]3[C@H]2O)c(=O)[nH]1; tested on = PDE6; test = cyclic nucleotide hydrolysis, substrate or inhibitor, isothermal titration calorimetry; measurement = Km or Ki; value = 10 µM
Structure (SMILES) = O=C1c2cccc3c2[C@H](CCC3)CN1[C@@H]1CN2CCC1CC2; test system = healthy volunteers, plasma; conditions = oral, dose not given, netupitant-palonosetron alone, rifampicin study; measurement = CL/F; value = 15.5 L/h
Structure (SMILES) = CCCC/C=C\CCCCCCCC=O; tested on = Heliothis virescens OR6 with Orco; test = ion current, agonist, two-electrode voltage clamp; test system = Xenopus oocytes; conditions = holding potential -80 mV; measurement = EC50; value = 6.2 µM
Structure (SMILES) = COc1ccc(-c2cccc(C(=O)N(C)C)c2)cc1S(=O)(=O)Nc1cccc(NCCNC(=O)c2ccccc2N(C)C)c1; tested on = orexin receptor 1; test = luciferase reporter gene, agonist; test system = CHO cells; measurement = EC50; value = 2.75 µM
Structure (SMILES) = C[C@]12CC=C3c4ccc(O)cc4CC[C@H]3[C@@H]1CC[C@@H]2O; tested on = oestrogen receptor alpha; test = binding, competition binding; measurement = EC50; value = 0.00398 µM
Structure (SMILES) = CO[C@@H]1[C@@H]2OP(=O)(O)OC[C@H]2O[C@H]1n1c(Sc2ccc(Cl)cc2)nc2c(N)ncnc21; tested on = PDE1C; test = cyclic nucleotide hydrolysis, substrate or inhibitor, isothermal titration calorimetry; measurement = Km or Ki; value = 44.2 µM
Structure (SMILES) = NC(=O)[C@]1(c2ccccc2)N=C(c2ccccc2)N(Cc2ccccc2)[C@@H]1c1ccccc1; tested on = NF-κB transcription; test = reporter gene, inhibitor, luciferase reporter; measurement = EC50; value = > 20 µM
Structure (SMILES) = O=c1c(O)c(-c2ccc(O)cc2)oc2cc(O)cc(O)c12; tested on = trypsin; measurement = EC50; value = 60 µM and 106 µM
Structure (SMILES) = Cc1ccccc1-c1cc(N2CCN(C)CC2)ncc1N(C)C(=O)C(C)(C)c1cc(C(F)(F)F)cc(C(F)(F)F)c1; test system = healthy volunteers, plasma; conditions = oral, dose not given, netupitant-palonosetron alone, ketoconazole study; measurement = Vz/F; value = 2340 L
Structure (SMILES) = CC(=NNc1c(Cl)cc(Cl)cc1Cl)c1cc(Cl)ccc1O; tested on = mitofusin; test = mitochondrial fusion, activator; measurement = EC50; value = 4 to 5 µM
Structure (SMILES) = CCCCCCCCNc1cc(=O)[nH]c(=O)[nH]1; tested on = human GPR84-Gαi fusion protein; test = agonist; test system = Sf9 membranes; measurement = EC50; value = 0.512 µM
Structure (SMILES) = CCOC(=O)[C@]1(c2ccccc2)N=C(c2ccccc2)N(Cc2ccccc2)[C@@H]1c1ccccc1; tested on = NF-κB transcription; test = reporter gene, inhibitor, luciferase reporter; measurement = EC50; value = 2.5 µM
Structure (SMILES) = COc1cc2c(cc1C13CC4CC(CC(C4)C1)C3)[C@H]1CC[C@]3(C)[C@@H](O)CC[C@H]3[C@@H]1CC2; tested on = oestrogen receptor alpha; test = binding, competition binding; measurement = EC50; value = > 10 µM
Structure (SMILES) = C[C@H]1O[C@@H](O[C@H]2[C@@H](O)C[C@H](O[C@H]3[C@@H](O)C[C@H](O[C@H]4CC[C@@]5(C)[C@H](CC[C@@H]6[C@@H]5C[C@@H](O)[C@]5(C)[C@@H](C7=CC(=O)OC7)CC[C@]65O)C4)O[C@@H]3C)O[C@@H]2C)C[C@H](O)[C@@H]1O; tested on = P-glycoprotein; test = efflux flux, substrate; test system = rat colon; conditions = half-maximal flux; measurement = EC50; value = 50.6 ± 8.8 µM
Structure (SMILES) = CCC(C)c1c(O)ccc2c1CC[C@@H]1[C@@H]2CC[C@]2(C)C(=O)CC[C@@H]12 (stereo partly shown); tested on = oestrogen receptor alpha; test = binding, competition binding; measurement = EC50; value = > 10 µM
Structure (SMILES) = CCc1cnc(N2CCC(c3nc(COc4ccc(-n5cnnn5)cc4)cs3)CC2)nc1; tested on = GPR119; test = cAMP accumulation, agonist; test system = HEK293 transfected with GPR119; measurement = EC50; value = 0.00833 µM

Excerpt of the above:
Structure (SMILES) = O=c1c(O)c(-c2ccc(O)cc2)oc2cc(O)cc(O)c12; tested on = trypsin; measurement = EC50; value = 60 µM and 106 µM
Structure (SMILES) = Cc1ccccc1-c1cc(N2CCN(C)CC2)ncc1N(C)C(=O)C(C)(C)c1cc(C(F)(F)F)cc(C(F)(F)F)c1; test system = healthy volunteers, plasma; conditions = oral, dose not given, netupitant-palonosetron alone, ketoconazole study; measurement = Vz/F; value = 2340 L
Structure (SMILES) = CC(=NNc1c(Cl)cc(Cl)cc1Cl)c1cc(Cl)ccc1O; tested on = mitofusin; test = mitochondrial fusion, activator; measurement = EC50; value = 4 to 5 µM
